Experimental data pooled from the literature.
A part holds a random share of what one study measured. Substitutions count along the parent as printed.

Block 1
Target: CCND2, cyclin fold, Cln2 fusion (human)
Method: yeast growth competition, sequencing
Sample: yeast
Notes: weak parent motif
Reference: not given
Reading: higher = stronger binding
Starting sequence: CDC25A docking peptide (human); PPHRRRLLFACSP; partner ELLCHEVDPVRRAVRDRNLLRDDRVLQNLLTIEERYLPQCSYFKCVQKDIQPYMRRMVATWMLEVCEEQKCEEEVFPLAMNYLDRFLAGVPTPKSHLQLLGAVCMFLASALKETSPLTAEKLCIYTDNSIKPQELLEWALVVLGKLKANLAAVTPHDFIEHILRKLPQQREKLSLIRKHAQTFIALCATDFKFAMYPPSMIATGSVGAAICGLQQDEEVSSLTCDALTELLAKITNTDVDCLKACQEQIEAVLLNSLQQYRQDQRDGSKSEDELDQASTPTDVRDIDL
Change	normalised enrichment score
PPHRRRLLFACSA [P13A]	0.135
PPHRRRLLFACLP [S12L]	0.281
PPHRKRLLLACSP [R5K F9L]	0.0146
WPHRRRLLFACSP [P1W]	-0.149
PPHRRRALFACSP [L7A]	0.248
PPHRRRLLHACSP [F9H]	0.162
PPHRRRLLVACSP [F9V]	0.284
PPNRRRLLFACSP [H3N]	0.104
PSHRRRLLFACSP [P2S]	-0.0615
PPHRRRLLFAHSP [C11H]	0.323
PPSRRRLLFACSP [H3S]	0.197
PPHRRRKLFACSP [L7K]	0.444
PPHRRRLLFARSP [C11R]	-0.312
PPHRHRLLFACSP [R5H]	0.48
PPHLRRLLFACSP [R4L]	0.345
PPHRRRLYFACSP [L8Y]	0.389
PPHRRRLLFACSR [P13R]	0.045
PPHRFRLLFACSP [R5F]	-0.223

Block 2
Target: PABPC1L2, full length, GST fusion (mouse, UniProt A0ABA7IW68)
Method: RNAcompete
Form: RNA
Sample: in vitro
Tested at: 20 nM
Notes: 7-mer, probes averaged, single round
Reference: mean of 7-mers
Reading: higher = stronger binding
Target sequence (chain): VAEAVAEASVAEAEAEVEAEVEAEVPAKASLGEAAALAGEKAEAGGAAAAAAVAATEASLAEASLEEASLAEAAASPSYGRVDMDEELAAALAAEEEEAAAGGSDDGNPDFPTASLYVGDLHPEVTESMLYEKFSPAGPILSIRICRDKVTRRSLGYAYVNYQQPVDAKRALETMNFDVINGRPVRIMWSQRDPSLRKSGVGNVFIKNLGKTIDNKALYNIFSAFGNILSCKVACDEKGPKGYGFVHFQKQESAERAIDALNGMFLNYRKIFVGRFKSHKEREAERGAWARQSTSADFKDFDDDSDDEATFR
Strand	7-mer Z-score
GGUAUAG	-0.0518
AGGAGAG	0.209
GUGCGGU	-0.0156
UGCAUUC	-0.251
GAGUCCA	-0.141
AGCUGGU	-0.0863
UGGGCCU	-0.121
CACUCCG	-0.291
UAGUGUA	-0.117
GACGUCC	-0.26
CCCGGCG	-0.206
UGUCAUU	-0.333
AGGGAUG	0.26
CAACCUA	-0.0844
AUAAGGU	0.0261
GAUAUGU	-0.249
CGGUGCU	-0.0355
GUGUUUC	-0.454

Block 3
Target: Protein max, full length (MAX, Homo sapiens, UniProt P61244-2, residues 1-151)
Method: protein-binding microarray
Form: double-stranded DNA, one strand shown
Sample: in vitro
Tested at: not given
Notes: k-mer, scored over probes, only values ≥0.25
Reading: higher = stronger binding
Strand	E-score
CATGGCAA	0.36
ACGCGTCG	0.293
GCGCACGC	0.421
CTTGCACA	0.268
GTGTCGTA	0.273
ACATGTTA	0.326
AACACGTG	0.498
CATGTGGG	0.477
ACGCGCAT	0.372
ATGCCGCC	0.283
CATGTCTC	0.289
AATACATG	0.286
AGCTCATG	0.301
GCATGCTA	0.406
GCGCGTGA	0.416
ACGCGGAT	0.261
ACCGCCTG	0.292
ATGGTCAC	0.29
GCGTGCCA	0.391
CGTGCTAG	0.388
CGCACGCC	0.366

Block 4
Target: RNA binding protein fox-1 homolog 2, RRM domain, GST-SBP tag (RBFOX2, Homo sapiens, UniProt O43251-10, residues 100-194)
Method: RNA Bind-n-Seq
Form: RNA
Sample: in vitro
Tested at: 365 nM
Notes: natural RNA segment, single round, ends assumed
Reference: no-protein control
Reading: higher = stronger binding
Target sequence (chain): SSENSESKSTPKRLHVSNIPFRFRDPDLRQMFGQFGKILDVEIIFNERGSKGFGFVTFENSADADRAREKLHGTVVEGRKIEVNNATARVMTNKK
Strand	RBNS enrichment (R)
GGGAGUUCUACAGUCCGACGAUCGCAACAGUCUUGCUGACAAGCUAGAGCUUGGACUGAAAGAGAAGAGCUGGAUUAUAUAUUUCCCAGACUUCAAACCCUAGCAGAAGCUAAGGCUUGUGAUUUGACCUGAGUGGAAUUCUCGGGUGCCAA	0.418
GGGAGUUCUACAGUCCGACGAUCUACACUGAGGCUUUAAAAACACAAGGUCCCCCAAGGCUUCCUAGAAAUUGAAAUCUUUGCCUAGGCAGAGAAAUUGACCUAUGGUGGCUUAUUUUAGUCUUUUAUAAAUAUGGAAUUCUCGGGUGCCAA	0.235
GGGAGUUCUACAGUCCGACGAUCUGAUACAGGAUGAACUUGGGAUGUUUGAACCCUGGACAUUCCAAAUAAAGAAUAGGCCCCUGCCUGGCUCCUGGGAGAUAACCUCUAAGCCAUUAGAAUAUCUUGCCUGAUGGAAUUCUCGGGUGCCAA	0.329
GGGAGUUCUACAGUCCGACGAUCAUUCUCUUGAUAAAUUUGUACAUCAGACCGGGUCACCAGCUAUGAUGCAGAACGCCAGAUUUUUGAAUCUCAAGUAACUUUCUGUGGUGCUGGACAAAUUGACUUAAUUCUGGAAUUCUCGGGUGCCAA	0.355
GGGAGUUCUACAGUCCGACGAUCCAUAGCAAUCGGAAUUAUUUUAAAUUCAAAAAUUGAUGCCCUCCCAAACCCCCCAAAGUAAAAAUUUGUUAAAGUGCAGAUUUUUUUUUUCUUUUUAUGUUAUGUGGUGUUGGAAUUCUCGGGUGCCAA	1.62
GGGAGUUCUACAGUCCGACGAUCAAAGUCUAAAUUGGAGAUCCAGUUUUAGAAGUGCUUUCUGGGAAGCAUUUAAUGGGAUUAGCUGUAGUCACUGCUUAUGGGAAGAACCUCAGAUCAGCCCCUUAAAAUGAUGGAAUUCUCGGGUGCCAA	0.567
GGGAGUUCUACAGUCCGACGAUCUUGCCCAAAAACACUGAAACUGUGCUCUCUGCCACCUGCCCCCCACGCUUUUUCUUUUUCUCUCUUUGGCAUUGUUCAUUUUGAGGUAGACCAUAGACUCUAGCCCAGGCUGGAAUUCUCGGGUGCCAA	0.948
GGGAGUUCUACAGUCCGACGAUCUUUAGCUACGUGGACCGGCUCUUCUCACCCCCCAGAUGAUGCUGGCAUGGAACGCAGUGCUCUUCACCGUCUGGCGAGUGCAUGCCAAGAGAGCUAGACAGCAGCAUUACUGGAAUUCUCGGGUGCCAA	12.9
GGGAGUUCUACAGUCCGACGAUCACAGUGCCGCGUGCGAGAUGAGCUCGAACACUGCCCGCCUUACUGCCGCCUACCCCGCCCGCCACGCCGCCGUCGAUGCCAGCGCUGUCCCCACGGGUACCAGGAAGUGCUGGAAUUCUCGGGUGCCAA	0.389
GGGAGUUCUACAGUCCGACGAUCCCCCUCUCACAAACCAUAUAAACACAGGGAGGGGCUUUCUCACCACUUCUGAGGAGACUGUACAGCCCGUUUUGUGCCUGUGUGUGUGUUCAUGGCCUGUAAGUGUACCCUGGAAUUCUCGGGUGCCAA	0.545
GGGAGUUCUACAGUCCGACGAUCAGGAAGGUCUGAUUUGCAGGAUUUUUAGAGCAUUAAAAUAACUAUCAGGCAGAAGAAUCUUUCUUCUCGCCUAGGAUUUCAGCCAUGCGCGCGCUCUCUCUCUUUCUCUCUGGAAUUCUCGGGUGCCAA	0.408
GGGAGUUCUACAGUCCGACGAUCCAAUAUUCAUUUGGUUGUGGAGACUGAUUUGCUGGGAGAAAUCUGUCCUGUUACUUUCUGGUCAUCCCAGGUUCUGACUUUUACCAGGGGCAAAAAAAAAAAAAGCAAGAUGGAAUUCUCGGGUGCCAA	0.344

Block 5
Target: UBE2H UBC core domain (UniProt P62256)
Sequence of UniProt P62256 (whole entry, looked up): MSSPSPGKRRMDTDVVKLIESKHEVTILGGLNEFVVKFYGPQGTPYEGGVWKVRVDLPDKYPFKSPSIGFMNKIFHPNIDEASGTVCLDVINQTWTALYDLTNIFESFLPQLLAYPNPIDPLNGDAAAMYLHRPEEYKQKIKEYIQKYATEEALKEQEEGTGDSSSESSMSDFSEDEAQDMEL
Method: yeast two-hybrid
Sample: yeast
Notes: mostly zero background
Reference: not given
Reading: higher = stronger interaction
B1: RNF170 RING domain (UniProt Q96K19); chain TRQQFYTDMYCPICLHQASFPVETNCGHLFCGACIIAYWRYGSWLGAISCPICRQTVTLLLTVF
B2: ZNF598 RING domain (UniProt Q86UK7); chain AAAPERGGGSCVLCCGDLEATALGRCDHPVCYRCSTKMRVLCEQRYCAVCREELRQVVFGK
B3: PHF21A RING domain (UniProt Q96BD5); chain SPTSTDGDIHEDFCSVCRKSGQLLMCDTCSRVYHLDCLDPPLKTIPKGMWICPRCQDQMLKKEEAIPW
B4: ARK2C RING domain (UniProt Q6ZSG1); chain EGEESDTDEKCTICLSMLEDGEDVRRLPCMHLFHQLCVDQWLAMSKKCPICRVDIETQLGAD
B5: UHRF2 RING domain (UniProt Q96PU4); chain CGGDPEKKCHSCSCRVCGGKHEPNMQLLCDECNVAYHIYCLNPPLDKVPEEEYWYCPSCKTDSSEVVKAGER
B6: MID1 RING domain (UniProt O15344); chain METLESELTCPICLELFEDPLLLPCAHSLCFNCAHRILVSHCATNESVESITAFQCPTCRHVITLSQRGL
B7: TRIM72 RING domain (UniProt Q6ZMU5); chain APGLLHQELSCPLCLQLFDAPVTAECGHSFCRACLGRVAGEPAADGTVLCPCCQAPTRPQALST
Molecule	lacZ reporter activity
VTLSLTLPITCHICLGKVRQPVICINNHVFCSICIDLWLKNNSQCPACRVPITPENPCK (OBI1 RING domain (UniProt Q5W0B1))	0
B1 (RNF170 RING domain)	0
QLRRLQEERTCKVCMDKEVSVVFIPCGHLVVCQECAPSLRKCPICRGIIKGTVRTF (BIRC2 RING domain (UniProt Q13490))	0
DAIPSLSECQCGICMEILVEPVTLPCNHTLCKPCFQSTVEKASLCCPFCRRRVSSWTRYH (RNF168 RING domain (UniProt Q8IYW5))	0
B2 (ZNF598 RING domain)	0
B3 (PHF21A RING domain)	0
FASPPDSNFVCSVCHGVLKRPARLPCSHIFCKKCILRWLARQKTCPCCRKEVKRKKVVH (RNF151 RING domain (UniProt Q2KHN1))	0
B4 (ARK2C RING domain)	0
B5 (UHRF2 RING domain)	0
B6 (MID1 RING domain)	0
B7 (TRIM72 RING domain)	0

Block 6
Target: ABI1, truncated, D143A, DHFR fusion (Arabidopsis thaliana)
Method: DHFR PCA, deep sequencing
Sample: yeast
Notes: methotrexate growth selection, single substitutions
Added: (+)-ABA 1.4 µM
Reference: wild-type fitted maximum
Reading: higher = stronger binding
Starting sequence: PYL1, truncated, DHFR fusion (Arabidopsis thaliana); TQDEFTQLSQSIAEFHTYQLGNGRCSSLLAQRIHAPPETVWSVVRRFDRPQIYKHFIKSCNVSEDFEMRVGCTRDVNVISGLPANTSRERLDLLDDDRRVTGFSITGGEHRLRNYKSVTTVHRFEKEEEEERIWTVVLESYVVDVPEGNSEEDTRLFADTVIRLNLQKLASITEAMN; partner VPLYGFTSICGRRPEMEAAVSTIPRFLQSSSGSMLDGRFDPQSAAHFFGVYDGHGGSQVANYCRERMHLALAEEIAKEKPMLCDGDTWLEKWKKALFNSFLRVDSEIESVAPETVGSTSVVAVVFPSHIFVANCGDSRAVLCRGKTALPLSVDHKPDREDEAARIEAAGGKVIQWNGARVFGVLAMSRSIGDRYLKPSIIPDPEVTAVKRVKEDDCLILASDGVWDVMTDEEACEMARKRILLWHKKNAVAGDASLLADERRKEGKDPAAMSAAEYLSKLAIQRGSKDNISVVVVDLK
Change	relative binding score [%]
N22G	50.2
D144G	2.8
V145K	-25.7
F15C	16.2
H55T	75.1
Q167L	51.3
E131S	68.8
A170P	4.5
S59M	-1.38
F5A	38.9
R88L	39.3
I57S	-3.05
T101V	49.3
R99P	3.44
F157K	1.31
L93S	9.84
I172Q	-12.7
V100G	-0.932

Repeated from above (block 6):
Change	relative binding score [%]
Q167L	51.3
E131S	68.8
A170P	4.5
S59M	-1.38
F5A	38.9
R88L	39.3
I57S	-3.05
T101V	49.3
R99P	3.44
F157K	1.31
L93S	9.84
I172Q	-12.7
V100G	-0.932
